Measured values pooled from the literature.
A part holds a random share of what one study measured. Substitutions count along the parent as printed.

Sample 1
Target: CCNB3, cyclin fold, Cln2 fusion (human)
Method: yeast growth competition, sequencing
Medium: yeast
Setting: weak parent motif
Baseline: not given
Reading: higher = stronger binding
Parent: CDC6 docking peptide (human); TLKGRRLVFDNQL; partner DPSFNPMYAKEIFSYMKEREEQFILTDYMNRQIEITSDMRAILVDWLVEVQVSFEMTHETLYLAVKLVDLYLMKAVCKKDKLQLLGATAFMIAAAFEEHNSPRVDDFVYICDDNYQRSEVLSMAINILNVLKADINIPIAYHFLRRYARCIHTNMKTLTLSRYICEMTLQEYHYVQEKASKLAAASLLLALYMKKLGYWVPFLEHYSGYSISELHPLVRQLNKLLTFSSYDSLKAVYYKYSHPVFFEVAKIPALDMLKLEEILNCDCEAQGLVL
`TLKGARAVFDNQL [R5A L7A]` — result for “normalised enrichment score”: 0.241.
Under “normalised enrichment score”, `TLKGRRGVFDNQL [L7G]` is recorded as -0.254.
`TLWGRRLVFDNQL [K3W]`: “normalised enrichment score” 0.0104.
For `TLKGARLVFDNQL [R5A]`, “normalised enrichment score” read 0.665.
`TLCGRRLVFDNQL [K3C]` — result for “normalised enrichment score”: 0.363.
For `TLKGKRLVLDNQL [R5K F9L]`, “normalised enrichment score” read 0.36.
Under “normalised enrichment score”, `TLKTRRLVFDNQL [G4T]` is recorded as -0.0428.
Under “normalised enrichment score”, `TLKGRRLVFLNQL [D10L]` is recorded as 0.371.
`TLKGRDLVFDNQL [R6D]` — result for “normalised enrichment score”: 0.0462.
Under “normalised enrichment score”, `TLKGRRLHFDNQL [V8H]` is recorded as 0.562.
`TLPGRRLVFDNQL [K3P]`: “normalised enrichment score” 0.262.
`TLKGRRKVFDNQL [L7K]`: “normalised enrichment score” 0.576.
Under “normalised enrichment score”, `TLKLRRLVFDNQL [G4L]` is recorded as -0.103.
`TLKGRRTVFDNQL [L7T]` — result for “normalised enrichment score”: 0.224.
`TLKGRRLVFDNQG [L13G]`: “normalised enrichment score” 0.257.
`TLKGRRLVFDMQL [N11M]`: “normalised enrichment score” 0.102.
For `SLKGRRLVFDNQL [T1S]`, “normalised enrichment score” read 0.32.

Sample 2
Target: RNA binding protein fox-1 homolog 2, RRM domain, GST-SBP tag (RBFOX2, Homo sapiens, UniProt O43251-10, residues 100-194)
Method: RNA Bind-n-Seq
Molecule type: RNA
Medium: in vitro
Tested at: 365 nM
Setting: natural RNA segment, single round, ends assumed
Baseline: no-protein control
Reading: higher = stronger binding
Constant ends, left off below: GGGAGUUCUACAGUCCGACGAUC … UGGAAUUCUCGGGUGCCAA
Residues (chain): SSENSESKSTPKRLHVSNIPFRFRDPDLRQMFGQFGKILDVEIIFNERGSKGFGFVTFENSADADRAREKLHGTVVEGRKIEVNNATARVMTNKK
`UUCAAGAGACUCGUAGAUGACUUUGCCUCCACAGCCGAUUUCCUCAUCAUUUACAUUGAAGAAGCUCACGCCACAGAUGGCUGGGCUUUUAAGAACAACGUGGACAUCCG` — result for “RBNS enrichment (R)”: 0.276.
For `UAGUCCCAUACCCUGAAGUAAUAUGUACCAUGGCUCCCACCUACCUGUUUAUGCUCUCCCUGCCCCCAGGGAAACUGUUUAUUCUUUCAAAAGAAGCAAACAGCGUUCAU`, “RBNS enrichment (R)” read 0.359.
`CUUUAAGACUUUAAAUACAGAUUUAGUUUUGAGUGUUUGAGAGACCACUACACUUGUAUGGUUGAGUGUUUAAAAUGUCUAUCACCCUCACUUCAGAGUGUGACUCUUUA`: “RBNS enrichment (R)” 0.431.
`CUCGGUACAAAGGGAAAACACUGAAUUGGCCCCAAAACACAGGAGCAAGCGUGUGGAUUUCCAUUGCAGAGCCCCUGUUUCAGGAUGCAAGAGUUUUCCAGCCCAAGGCA` — result for “RBNS enrichment (R)”: 0.477.
`UGGCACUAGUUCAGUUUAUAUCCCUCUCAUAAUAUGGCAGUUCAUUAAAAUACAAAGCAGUAAAAUGUCAUUUGCUGUACGAUUAUUAACUAUAAAUCUGGCUAUUUCUU`: “RBNS enrichment (R)” 0.411.
`GAAUAUGGUGAGAAAUUGGGAAAAAUGGACAUUGAUAGGCAUAUCAUCUGCUUUGUGUACAUAUGGUAUUAAAACUGAAAACAAAUAUUCUUGACAUUUGGGUUUCAAAA` — result for “RBNS enrichment (R)”: 0.665.
`UUCAUGUGUAAUAGCUCAAAUGGAAUAAGCAUGAAUGCUGGAGUGGACCAUUAUCCUCAAAUAUUCUAUGUCACUUCUCAUUUAAAGACUCUUGUUAUGAACUAUUAGAA`: “RBNS enrichment (R)” 1.24.
Under “RBNS enrichment (R)”, `CUUCACACCAUGGGAUAAAUCUGUAUCAAGACGGUUCUUUUCUAGAUUUCCUCUACCUUUUUGCUCUUAAAACUGCUUCUCUGCUCUGAGAAGCACAGCUACCUGCCUUC` is recorded as 0.619.
`UUAUUCAGGAAAAAAACUGAGCAGCUCUGGCCAGCAGCAAGGUUUCUUCUCUACUGCCCCAACUAUUGUGUGGCCUCUUGUGCUGAAAUCUCUGGCUUCAGAGCCUGAAA` — result for “RBNS enrichment (R)”: 0.309.
For `UGUCUUUAAGAAAAAGAAAUCAAUCUGCAGAAAUGUGAAGAUUUGCAAGCAGUGUAAACUGCAACUAGUGAUGUAAAUGUGCUAUUACCUAGGUAACUGCAUAUAUAUAA`, “RBNS enrichment (R)” read 0.713.
Under “RBNS enrichment (R)”, `ACAUGCAUUUGUGCAUUUCUACUACAAUGGCAUCUUUAUGUCUCUGUAACAUUGGCCUUUUCAUGGCUCCACACUGGGUGGAACCAUAUUCUCUUAGAUCACAUUUAGUA` is recorded as 0.435.
For `GGGAAAAAGGUUGUUACCUCAAAGUCAUUGCUUCUUUCCUGGCUGGGUCACAGGGUGAAGAGAUGAAGGUGUCUGAUGUAUAUAGACAAUUAGGGAAAAAUGAGCGGCAA`, “RBNS enrichment (R)” read 0.928.

Sample 3
Target: ABI1, truncated, D143A, DHFR fusion (Arabidopsis thaliana)
Method: DHFR PCA, deep sequencing
Medium: yeast
Setting: methotrexate growth selection, single substitutions
Added: (+)-ABA 710 µM
Baseline: wild-type fitted maximum
Reading: higher = stronger binding
Parent: PYL1, truncated, DHFR fusion (Arabidopsis thaliana); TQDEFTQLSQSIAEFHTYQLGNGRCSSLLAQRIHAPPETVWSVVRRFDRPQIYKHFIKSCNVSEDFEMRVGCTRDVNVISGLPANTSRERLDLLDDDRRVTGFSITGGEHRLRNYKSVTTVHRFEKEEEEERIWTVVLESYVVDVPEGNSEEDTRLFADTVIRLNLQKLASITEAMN; partner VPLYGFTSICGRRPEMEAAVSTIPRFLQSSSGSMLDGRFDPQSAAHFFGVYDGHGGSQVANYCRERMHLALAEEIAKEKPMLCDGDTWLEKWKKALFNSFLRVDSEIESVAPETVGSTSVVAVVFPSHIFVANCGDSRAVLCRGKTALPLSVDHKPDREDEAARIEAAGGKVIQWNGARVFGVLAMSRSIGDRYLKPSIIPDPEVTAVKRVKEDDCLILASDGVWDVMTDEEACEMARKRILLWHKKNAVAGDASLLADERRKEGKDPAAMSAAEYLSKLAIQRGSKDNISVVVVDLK
`L29S`: “relative binding score” 86.8%.
`I57A` — result for “relative binding score”: 77.4%.
For `T39R`, “relative binding score” read 104%.
Under “relative binding score”, `G21R` is recorded as 100%.
`S9A`: “relative binding score” 106%.
`S87P`: “relative binding score” 19.8%.
Under “relative binding score”, `F56V` is recorded as 42.4%.
`R132G` — result for “relative binding score”: 117%.
Under “relative binding score”, `I12F` is recorded as 85.1%.
For `P83Q`, “relative binding score” read 73.4%.
For `S26A`, “relative binding score” read 98.1%.
Under “relative binding score”, `L166W` is recorded as 9.58%.
Under “relative binding score”, `F15K` is recorded as 70.1%.
For `I52H`, “relative binding score” read 101%.
Under “relative binding score”, `V40H` is recorded as -1.96%.
For `V145W`, “relative binding score” read 46.8%.

Mixed results
The fold induction of `PhoQ, residues 284 288 289 292 302 303 AANNSF` is reported as 11.9 (PhoP, residues 12 14 15 18 19 LHHSG (Escherichia coli, UniProt P23836); Sort-seq, item: YFP reporter; E. coli; PhoQ-PhoP variant library, added: 10 µM Mg2+; baseline: high Mg2+ state, higher = stronger signaling).

For quick reference, copied from above (sample 1):
Under “normalised enrichment score”, `TLKTRRLVFDNQL [G4T]` is recorded as -0.0428.
`TLKGRRLVFDMQL [N11M]`: “normalised enrichment score” 0.102.
`TLWGRRLVFDNQL [K3W]`: “normalised enrichment score” 0.0104.
For `TLKGKRLVLDNQL [R5K F9L]`, “normalised enrichment score” read 0.36.
Under “normalised enrichment score”, `TLKLRRLVFDNQL [G4L]` is recorded as -0.103.
For `TLKGARLVFDNQL [R5A]`, “normalised enrichment score” read 0.665.
